Results of several laboratories.
Every numbered part comes from another study and shows a few of its results, in no order. Substitutions count along the parent as printed.

Sample 1 — target: CCND3, cyclin fold, Cln2 fusion (human); method: yeast growth competition, sequencing; medium: yeast; setting: weak parent motif; baseline: not given; reading: higher = stronger binding
Starting sequence: SLBP docking peptide (human); ARYKRKLLINDFG; partner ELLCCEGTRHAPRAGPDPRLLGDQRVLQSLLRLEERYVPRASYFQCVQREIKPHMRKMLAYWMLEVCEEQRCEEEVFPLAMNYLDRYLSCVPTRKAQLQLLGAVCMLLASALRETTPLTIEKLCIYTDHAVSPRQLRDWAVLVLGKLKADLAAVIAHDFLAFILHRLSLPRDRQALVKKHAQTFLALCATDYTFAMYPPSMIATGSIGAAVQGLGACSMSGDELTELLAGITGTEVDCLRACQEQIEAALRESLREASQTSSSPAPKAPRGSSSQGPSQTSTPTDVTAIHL
Under “normalised enrichment score”, `ARYKRKLLIEDFG [N10E]` is recorded as 0.232.
`ARYKRKLLIQDFG [N10Q]` — result for “normalised enrichment score”: 0.105.
For `ARYKRALLINDFG [K6A]`, “normalised enrichment score” read 0.208.
Under “normalised enrichment score”, `ARYKRKLLINDFQ [G13Q]` is recorded as 0.155.
`ARYKIKLLINDFG [R5I]`: “normalised enrichment score” 0.102.
Under “normalised enrichment score”, `ARYKRKKLINDFG [L7K]` is recorded as 0.12.
For `AREKRKLLINDFG [Y3E]`, “normalised enrichment score” read 0.147.
`ARYKRKLLINDSG [F12S]` — result for “normalised enrichment score”: 0.0726.
`ARSKRKLLINDFG [Y3S]`: “normalised enrichment score” 0.213.
For `ARYKRKGLINDFG [L7G]`, “normalised enrichment score” read 0.1.
For `ARYERKLLINDFG [K4E]`, “normalised enrichment score” read 0.0817.
For `ARYKRKLLIADFG [N10A]`, “normalised enrichment score” read 0.0508.
Under “normalised enrichment score”, `ARKKRKLLINDFG [Y3K]` is recorded as 0.12.
Under “normalised enrichment score”, `ARYKRKLHINDFG [L8H]` is recorded as 0.106.
`ARYKCKLLINDFG [R5C]`: “normalised enrichment score” 0.196.
`ARYKRKLLHNDFG [I9H]` — result for “normalised enrichment score”: 0.18.
Under “normalised enrichment score”, `ARYKRPLLINDFG [K6P]` is recorded as 0.164.
`PRYKRKLLINDFG [A1P]`: “normalised enrichment score” 0.0711.
Under “normalised enrichment score”, `ARYKRDLLINDFG [K6D]` is recorded as 0.123.
Under “normalised enrichment score”, `ARYKFKLLINDFG [R5F]` is recorded as 0.0966.
Under “normalised enrichment score”, `ARYKRKLLINDAG [F12A]` is recorded as 0.0953.
For `ARYKRKLLINDFN [G13N]`, “normalised enrichment score” read 0.107.

Sample 2 — method: protein binding microarray; molecule type: double-stranded DNA, one strand shown; medium: in vitro; tested at: not given; baseline: not given; reading: higher = stronger binding
Target: Histone acetyltransferase KAT6A, both winged helices, GST fusion (KAT6A, Homo sapiens, UniProt Q92794, residues 1-181)
Setting: 8-mer, flanks averaged, mean of 2 arrays, mostly near background
Target sequence (chain): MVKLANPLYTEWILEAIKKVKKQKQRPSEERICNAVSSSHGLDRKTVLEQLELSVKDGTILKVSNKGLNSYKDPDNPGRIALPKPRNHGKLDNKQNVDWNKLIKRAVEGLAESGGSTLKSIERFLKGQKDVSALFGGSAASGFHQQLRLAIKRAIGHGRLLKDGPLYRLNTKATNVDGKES
`CGTACGGC` gave an E-score of 0.318.
`CCCCAGCC` gave an E-score of -0.189.
The E-score of `CAGTGCTC` is reported as -0.177.
`AATTCATA` has an E-score of 0.0397.
For `ACAATTAT`, the E-score was -0.00432.
The E-score of `ACAACGCA` is reported as 0.134.
With `CTACAGAC` the E-score was -0.113.
For `CATTCCAG`, the E-score was -0.241.
With `AAACGGGT` the E-score was 0.282.
`CGAAGGCG` gave an E-score of 0.162.
With `CAATGCGG` the E-score was 0.136.
With `CGGGGTCA` the E-score was 0.229.
For `AATCCTTC`, the E-score was -0.0706.
`AGAAAGTA` has an E-score of -0.0765.
`CATATTAG` gave an E-score of -0.0511.
For `AATATATT`, the E-score was -0.00235.
The E-score of `CAACATCC` is reported as 0.0342.
For `TGGATCAA`, the E-score was -0.144.
With `TAAGTGAA` the E-score was -0.151.
`ACCTCCCG` has an E-score of 0.18.

Sample 3 — method: RNA Bind-n-Seq; molecule type: RNA; medium: in vitro; tested at: 200 nM; setting: whole 134-nt RNA, ends assumed; together with: 150 mM LiCl; baseline: input library; reading: higher = stronger binding; library: 7-deaza-guanosine replaces G
Target: Fragile X messenger ribonucleoprotein 1, C-terminal low-complexity region (Fmr1, Mus musculus, UniProt P35922)
With `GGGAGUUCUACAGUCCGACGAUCCUCAAGUCCUGUGCUACACAUCGUAUGUACCGAAUCGGAGGAAAAAGGUUUGGAAAGUAUUAUGUUACGCCGUUCGGAUCUGCACUUCCAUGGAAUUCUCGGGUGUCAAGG` the log2 enrichment was -1.11.
With `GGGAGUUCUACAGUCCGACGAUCGUGCUACACAUCGUAUGUACCGAAUCGGGGUUUUUUUGGGGUUUUUUUGGGGAAAAAAAGGGGAAAGUAUUAUGUUACGCCGUUCGGAUCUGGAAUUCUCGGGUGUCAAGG` the log2 enrichment was 0.443.
For `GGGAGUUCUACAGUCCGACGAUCCCUGUGCUACACAUCGUAUGUACCGAAUCGGGGAAAAAGGGGUUUGGGGUUUUUUUGGGGAAAGUAUUAUGUUACGCCGUUCGGAUCUGCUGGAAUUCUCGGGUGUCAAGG`, the log2 enrichment was -0.851.
For `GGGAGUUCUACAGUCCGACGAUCCUGUGCUACACAUCGUAUGUACCGAAUCGGGAAAAAAAGGGGAAAAAAAGGGGAAAAAAAGGAAAGUAUUAUGUUACGCCGUUCGGAUCUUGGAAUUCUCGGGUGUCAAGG`, the log2 enrichment was 0.497.
`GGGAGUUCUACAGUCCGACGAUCUAACUUUAGAGGAGGAUCUGAUGGAUAUGGCAGUGGACGUGGAUUUGGGGAUGGCUAUAAUGGGUAUGGAGGAGGACCUGGAGGUGUCAAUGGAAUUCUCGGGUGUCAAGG` has a log2 enrichment of -0.0804.
The log2 enrichment of `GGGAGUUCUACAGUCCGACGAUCCUGUGCUACACAUCGUAUGUACCGAAUCGGAAAAAAAGGGGAAAAAAAGGGAAAAAAAGGGGAAAGUAUUAUGUUACGCCGUUCGGAUCUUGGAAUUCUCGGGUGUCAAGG` is reported as 0.0963.
`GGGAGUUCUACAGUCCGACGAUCCUCAAGUCCUGUGCUACACAUCGUAUGUACCGAAUCGGGUGGGGUGGGGUGGGAAAGUAUUAUGUUACGCCGUUCGGAUCUGCACUUCCAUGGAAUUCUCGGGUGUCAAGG` has a log2 enrichment of -0.576.
For `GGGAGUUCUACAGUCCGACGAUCUAACUUUAGAGGAGGAUCUGAUGGAUAUGGCAGUGGACGUGGAUUUGGGGCUGGCUAUAAUGGGUAUGGAGGAGGACCUGGAGGUGGCAAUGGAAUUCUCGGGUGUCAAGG`, the log2 enrichment was 0.56.
`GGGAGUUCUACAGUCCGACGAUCUGGGAGGUGGAUUUUGUUUAUUUUUUUAGCUCAUUUCCAGGGGUGGGAAAUUUUUUUUAAUAUGUGUCAUGAAUAAAGUUGUUUUUGAAAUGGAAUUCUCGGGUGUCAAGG` gave a log2 enrichment of 0.347.
`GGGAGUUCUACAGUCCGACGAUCCUGUGCUACACAUCGUAUGUACCGAAUCGGGGUUUUUGGGGUUUUUGGGGAAAAAAAGGGGAAAGUAUUAUGUUACGCCGUUCGGAUCUGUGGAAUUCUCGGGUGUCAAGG` gave a log2 enrichment of 0.21.
With `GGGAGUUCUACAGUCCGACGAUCUCAAGUCCUGUGCUACACAUCGUAUGUACCGAAUCGGUUUGGUUUGGGUUUGGGAAAGUAUUAUGUUACGCCGUUCGGAUCUGCACUUCCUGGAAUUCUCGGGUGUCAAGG` the log2 enrichment was -2.14.

Sample 4 — target: UBE2L3 UBC core domain (UniProt P68036); method: yeast two-hybrid; medium: yeast; setting: mostly zero background; baseline: not given; reading: higher = stronger interaction
Sequence of UniProt P68036 (whole entry, looked up): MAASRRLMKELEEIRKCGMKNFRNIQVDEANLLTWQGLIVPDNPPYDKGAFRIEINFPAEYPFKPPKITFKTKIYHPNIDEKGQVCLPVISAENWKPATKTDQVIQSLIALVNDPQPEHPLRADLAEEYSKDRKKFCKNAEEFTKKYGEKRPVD
B1: PHF21A RING domain (UniProt Q96BD5); chain SPTSTDGDIHEDFCSVCRKSGQLLMCDTCSRVYHLDCLDPPLKTIPKGMWICPRCQDQMLKKEEAIPW
B2: CUL9 RING domain (UniProt Q8IWT3); chain AQAVPVRPDHCPVCVSPLGCDDDLPSLCCMHYCCKSCWNEYLTTRIEQNLVLNCTCPIADCPAQPTGAFIR
B3: IRF2BPL RING domain (UniProt Q9H1B7); chain SPMANSGPLCCTICHERLEDTHFVQCPSVPSHKFCFPCSRESIKAQGATGEVYCPSGEKCPLVGSNVP
B4: TRIM63 RING domain (UniProt Q969Q1); chain PMENLEKQLICPICLEMFTKPVVILPCQHNLCRKCANDIFQAANPYWTSRGSSVSMSGGRFRCPTCRHEVIMDRHGV
`B1 (PHF21A RING domain)`: “lacZ reporter activity” 0.
Under “lacZ reporter activity”, `B2 (CUL9 RING domain)` is recorded as 0.
`QLRRLQEERTCKVCMDKEVSVVFIPCGHLVVCQECAPSLRKCPICRGIIKGTVRTF (BIRC2 RING domain (UniProt Q13490))`: “lacZ reporter activity” 0.
Under “lacZ reporter activity”, `RLTMMWEEVTCPICLDPFVEPVSIECGHSFCQECISQVGKGGGSVCPVCRQRFLLKNLRP (TRIM21 RING domain (UniProt P19474))` is recorded as 0.
`B3 (IRF2BPL RING domain)`: “lacZ reporter activity” 0.
`QHHELTSLFECPVCFDYVLPPILQCQAGHLVCNQCRQKLSCCPTCRGALTPSIRNL (SIAH2 RING domain (UniProt O43255))`: “lacZ reporter activity” 0.
`B4 (TRIM63 RING domain)`: “lacZ reporter activity” 0.

Sample 5 — method: DHFR PCA, deep sequencing; medium: yeast; together with: (+)-ABA 0.0091 µM; baseline: wild-type fitted maximum; reading: higher = stronger binding
Target: ABI1, truncated, D143A, DHFR fusion (Arabidopsis thaliana)
Setting: methotrexate growth selection, single substitutions
Starting sequence: PYL1, truncated, DHFR fusion (Arabidopsis thaliana); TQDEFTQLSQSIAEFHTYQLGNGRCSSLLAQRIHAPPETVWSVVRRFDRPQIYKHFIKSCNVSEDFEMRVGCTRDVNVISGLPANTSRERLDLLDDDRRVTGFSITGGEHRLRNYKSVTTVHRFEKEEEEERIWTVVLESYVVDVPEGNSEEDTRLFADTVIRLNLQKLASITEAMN
Under “relative binding score”, `F5P` is recorded as -4.29%.
`R111G`: “relative binding score” 3.55%.
`V118M` — result for “relative binding score”: 6.22%.
For `E151M`, “relative binding score” read 35.4%.
Under “relative binding score”, `H55F` is recorded as 12.5%.
`R46T`: “relative binding score” 0.711%.
Under “relative binding score”, `T119V` is recorded as -0.523%.
`E131Y`: “relative binding score” 14.3%.
`V145R` — result for “relative binding score”: -0.281%.
`R163D`: “relative binding score” -2.48%.
`R113I`: “relative binding score” 9.57%.
`R113L`: “relative binding score” 18.4%.
`N177S`: “relative binding score” 38.6%.

Some of these lines once more (sample 5):
Under “relative binding score”, `T119V` is recorded as -0.523%.
For `E151M`, “relative binding score” read 35.4%.
Under “relative binding score”, `H55F` is recorded as 12.5%.
`V145R` — result for “relative binding score”: -0.281%.
